# Measurements collected from several papers.
# Every numbered part comes from another study and shows a few of its results, in no order. Several values in a cell are separate wells, animals, samples, runs or records. Substitutions count along the parent as printed.
# Chain of UniProt P16234 (whole entry, looked up): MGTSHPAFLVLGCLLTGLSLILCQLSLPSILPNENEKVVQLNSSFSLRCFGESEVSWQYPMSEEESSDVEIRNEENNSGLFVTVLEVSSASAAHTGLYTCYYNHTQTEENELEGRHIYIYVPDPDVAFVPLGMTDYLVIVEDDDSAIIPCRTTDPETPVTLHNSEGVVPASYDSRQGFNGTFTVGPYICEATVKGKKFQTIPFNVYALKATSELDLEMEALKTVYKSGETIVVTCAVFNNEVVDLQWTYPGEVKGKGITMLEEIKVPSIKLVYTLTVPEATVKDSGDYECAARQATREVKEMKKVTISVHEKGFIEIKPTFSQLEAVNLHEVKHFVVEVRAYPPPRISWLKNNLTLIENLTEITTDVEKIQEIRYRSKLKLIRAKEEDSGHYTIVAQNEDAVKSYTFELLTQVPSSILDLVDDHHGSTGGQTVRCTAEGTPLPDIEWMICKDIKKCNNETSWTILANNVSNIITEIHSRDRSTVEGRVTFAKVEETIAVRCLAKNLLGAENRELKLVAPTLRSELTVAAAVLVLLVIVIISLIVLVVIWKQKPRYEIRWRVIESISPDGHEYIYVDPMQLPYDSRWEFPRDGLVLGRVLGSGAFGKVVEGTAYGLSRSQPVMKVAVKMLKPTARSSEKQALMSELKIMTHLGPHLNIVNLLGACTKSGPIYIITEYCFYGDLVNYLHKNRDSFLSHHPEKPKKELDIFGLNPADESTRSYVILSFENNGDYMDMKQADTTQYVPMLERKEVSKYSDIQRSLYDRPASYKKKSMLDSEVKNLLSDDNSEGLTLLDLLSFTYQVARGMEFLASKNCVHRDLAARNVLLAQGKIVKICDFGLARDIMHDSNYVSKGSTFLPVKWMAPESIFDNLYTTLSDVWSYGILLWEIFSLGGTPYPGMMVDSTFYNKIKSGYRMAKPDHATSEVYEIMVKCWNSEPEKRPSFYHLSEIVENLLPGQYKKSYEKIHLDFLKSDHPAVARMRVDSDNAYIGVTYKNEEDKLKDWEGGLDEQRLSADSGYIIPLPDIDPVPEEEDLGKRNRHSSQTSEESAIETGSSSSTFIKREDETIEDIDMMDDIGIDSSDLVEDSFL
# Chain of UniProt Q9UK32 (whole entry, looked up): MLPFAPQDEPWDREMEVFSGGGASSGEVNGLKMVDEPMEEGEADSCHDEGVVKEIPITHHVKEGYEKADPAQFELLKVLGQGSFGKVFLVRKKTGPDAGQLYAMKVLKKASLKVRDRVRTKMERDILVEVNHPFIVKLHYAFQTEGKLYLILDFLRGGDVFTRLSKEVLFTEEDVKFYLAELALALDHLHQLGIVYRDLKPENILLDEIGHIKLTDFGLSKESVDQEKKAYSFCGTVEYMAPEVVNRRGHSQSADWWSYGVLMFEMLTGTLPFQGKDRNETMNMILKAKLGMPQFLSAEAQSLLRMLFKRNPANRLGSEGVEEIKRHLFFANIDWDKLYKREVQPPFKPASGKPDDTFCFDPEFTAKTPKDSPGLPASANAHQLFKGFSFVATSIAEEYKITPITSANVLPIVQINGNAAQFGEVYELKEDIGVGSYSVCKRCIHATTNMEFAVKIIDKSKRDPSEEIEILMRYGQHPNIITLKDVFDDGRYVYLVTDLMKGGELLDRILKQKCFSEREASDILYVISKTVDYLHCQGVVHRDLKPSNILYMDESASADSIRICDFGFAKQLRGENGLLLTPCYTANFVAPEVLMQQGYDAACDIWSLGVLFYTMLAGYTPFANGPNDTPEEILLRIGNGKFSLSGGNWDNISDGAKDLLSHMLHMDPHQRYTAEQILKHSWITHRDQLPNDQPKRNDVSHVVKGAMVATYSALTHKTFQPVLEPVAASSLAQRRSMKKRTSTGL
# Chain of UniProt P19525 (whole entry, looked up): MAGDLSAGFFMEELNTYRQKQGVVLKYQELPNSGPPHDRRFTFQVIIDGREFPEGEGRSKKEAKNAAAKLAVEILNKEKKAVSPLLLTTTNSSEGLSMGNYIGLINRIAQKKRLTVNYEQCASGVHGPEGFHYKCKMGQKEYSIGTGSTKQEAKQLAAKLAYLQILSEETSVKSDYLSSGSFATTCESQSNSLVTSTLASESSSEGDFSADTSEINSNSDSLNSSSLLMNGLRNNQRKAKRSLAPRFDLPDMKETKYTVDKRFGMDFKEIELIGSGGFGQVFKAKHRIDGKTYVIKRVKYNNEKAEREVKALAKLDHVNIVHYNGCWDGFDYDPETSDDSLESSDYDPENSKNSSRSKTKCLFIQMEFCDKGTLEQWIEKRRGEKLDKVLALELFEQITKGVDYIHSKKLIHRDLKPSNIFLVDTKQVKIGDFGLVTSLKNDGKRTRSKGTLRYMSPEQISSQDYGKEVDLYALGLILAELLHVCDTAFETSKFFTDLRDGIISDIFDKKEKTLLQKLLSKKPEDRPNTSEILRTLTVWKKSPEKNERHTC
# Chain of UniProt Q7KZI7 (whole entry, looked up): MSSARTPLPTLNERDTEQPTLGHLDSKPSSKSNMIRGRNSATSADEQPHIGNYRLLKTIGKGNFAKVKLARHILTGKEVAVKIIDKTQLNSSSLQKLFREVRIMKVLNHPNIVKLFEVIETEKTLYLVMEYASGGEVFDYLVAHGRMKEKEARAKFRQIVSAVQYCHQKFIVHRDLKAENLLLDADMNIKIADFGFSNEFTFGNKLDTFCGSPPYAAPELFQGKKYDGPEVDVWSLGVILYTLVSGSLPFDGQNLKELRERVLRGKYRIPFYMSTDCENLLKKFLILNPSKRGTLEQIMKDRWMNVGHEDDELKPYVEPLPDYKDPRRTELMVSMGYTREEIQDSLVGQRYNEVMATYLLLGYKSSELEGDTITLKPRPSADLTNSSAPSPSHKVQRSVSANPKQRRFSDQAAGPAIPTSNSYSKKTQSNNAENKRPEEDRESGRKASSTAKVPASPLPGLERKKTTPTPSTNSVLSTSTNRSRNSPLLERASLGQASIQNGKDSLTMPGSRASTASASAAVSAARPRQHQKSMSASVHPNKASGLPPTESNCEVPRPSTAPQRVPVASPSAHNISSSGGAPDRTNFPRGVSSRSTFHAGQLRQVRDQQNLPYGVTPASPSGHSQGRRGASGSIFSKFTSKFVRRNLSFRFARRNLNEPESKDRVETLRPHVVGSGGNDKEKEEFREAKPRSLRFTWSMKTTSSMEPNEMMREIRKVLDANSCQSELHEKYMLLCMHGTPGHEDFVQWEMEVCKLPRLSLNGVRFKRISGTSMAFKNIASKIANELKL
# Chain of UniProt Q9UQB9 (whole entry, looked up): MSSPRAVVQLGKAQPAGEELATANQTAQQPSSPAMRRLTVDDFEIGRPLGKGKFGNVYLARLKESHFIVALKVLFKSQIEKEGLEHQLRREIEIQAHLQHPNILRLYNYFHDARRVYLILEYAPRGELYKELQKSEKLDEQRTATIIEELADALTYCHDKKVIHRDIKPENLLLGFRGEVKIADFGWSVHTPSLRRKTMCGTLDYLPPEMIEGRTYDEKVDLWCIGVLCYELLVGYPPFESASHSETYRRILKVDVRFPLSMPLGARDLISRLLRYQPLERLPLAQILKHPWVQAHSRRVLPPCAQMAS
# Chain of UniProt Q8WU08 (whole entry, looked up): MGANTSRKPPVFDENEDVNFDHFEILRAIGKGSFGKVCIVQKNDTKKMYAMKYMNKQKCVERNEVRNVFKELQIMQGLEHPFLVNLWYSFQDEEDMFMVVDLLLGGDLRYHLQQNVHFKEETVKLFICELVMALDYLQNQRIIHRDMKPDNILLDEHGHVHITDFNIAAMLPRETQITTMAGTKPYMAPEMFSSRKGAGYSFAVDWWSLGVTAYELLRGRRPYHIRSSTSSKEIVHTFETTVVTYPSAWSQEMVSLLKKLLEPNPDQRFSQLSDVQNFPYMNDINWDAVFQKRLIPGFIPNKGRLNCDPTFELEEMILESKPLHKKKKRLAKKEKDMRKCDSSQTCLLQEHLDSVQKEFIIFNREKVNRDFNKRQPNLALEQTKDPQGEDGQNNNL
# Chain of UniProt O00238 (whole entry, looked up): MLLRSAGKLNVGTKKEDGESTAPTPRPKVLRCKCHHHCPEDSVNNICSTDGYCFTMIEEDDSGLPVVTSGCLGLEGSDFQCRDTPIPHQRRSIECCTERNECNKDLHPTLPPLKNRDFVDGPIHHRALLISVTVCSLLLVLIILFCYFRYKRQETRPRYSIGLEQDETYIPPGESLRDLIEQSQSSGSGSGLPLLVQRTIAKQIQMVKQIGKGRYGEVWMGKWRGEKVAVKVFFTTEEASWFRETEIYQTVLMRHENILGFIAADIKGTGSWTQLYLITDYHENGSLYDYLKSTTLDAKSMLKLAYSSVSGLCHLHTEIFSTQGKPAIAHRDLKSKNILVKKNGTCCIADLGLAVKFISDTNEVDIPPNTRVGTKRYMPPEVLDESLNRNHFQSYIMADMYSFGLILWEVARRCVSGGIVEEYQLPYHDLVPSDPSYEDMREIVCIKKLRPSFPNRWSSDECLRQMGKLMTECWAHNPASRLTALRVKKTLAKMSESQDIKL

# Series 1
# SMILES: CC[C@@H](C)c1nc2cc(Nc3ccnc4ccc(S(=O)(=O)C(C)C)cc34)ccc2s1.Cl
# Technique: CCK-8
cell line,setting,survival
L929 RIPK3-/- reexpressing RIPK3 K51A/R69H,"6.25 µM, added: zVAD",99.9% and 100% and 101% and 99.6%
L929 RIPK3-/- reexpressing RIPK3 K51A,"6.25 µM, added: zVAD",92.7% and 86.7% and 104% and 100% and 102%
L929 RIPK3-/- reexpressing RIPK3 K51A/R69H,"25 µM, added: zVAD",80.9% and 80.5% and 78.1% and 78% and 92.1%
L929 RIPK3-/- reexpressing RIPK3 K51A,12.5 µM,112% and 98.5% and 90.5% and 86.5% and 95.9%

# Series 2
# Compound: O=C1NC(=O)c2c1c1c3ccccc3n3c1c1c2c2ccccc2n1[C@H]1CC[C@@H]3O1
# Observed: enzyme activity
# Action: inhibitor
# Concentration: 0.5 µM
# Relative to: control
target,remaining activity [%]
"Aurora kinase C (AURKC, Homo sapiens, UniProt Q9UQB9)",36.5
"PRKCE (Homo sapiens, UniProt Q02156)",28.4
"CSK (Homo sapiens, UniProt P41240)",79.7
"EPHB2 (Homo sapiens, UniProt P29323)",98.4

# Series 3
# Target: CCNF, cyclin fold, Cln2 fusion (human)
# Technique: yeast growth competition, sequencing
# Sample: yeast
# Notes: strong parent motif
# Relative to: not given
# Reading: higher = stronger binding
# Starting sequence: viral docking peptide; YKVKRRLVFGADD
Change,normalised enrichment score
YKCKRRLVFGADD [V3C],8.36
YWVKRRLVFGADD [K2W],9.28
YKVKARLVFGADD [R5A],3.21
YKVKARAVFGADD [R5A L7A],0.718
YKVKRRLVRGADD [F9R],0.3
YKVKRRYVFGADD [L7Y],0.528
YGVKRRLVFGADD [K2G],8.61
YKVKRRLVFDADD [G10D],8.38

# Series 4
# Compound: N#CC1(c2ccccn2)CCN(Cc2cc(C(=O)O)c(=O)n3ccccc23)CC1
# Observed: cell-free assay
# Technique: competition with immobilised ligand
# Concentration: 1 µM
target,remaining binding
"PIK3CA (Homo sapiens, UniProt P42336, E545K)",100%
"CRK2 (Plasmodium falciparum, UniProt P61075)",68%
"MTOR (Homo sapiens, UniProt P42345)",90%
"TNIK (Homo sapiens, UniProt Q9UKE5)",100%
"STK36 (Homo sapiens, UniProt Q9NRP7)",100%
"DCLK1 (Homo sapiens, UniProt O15075)",100%
"PDGFRA (Homo sapiens, UniProt P16234)",90%
"EIF2AK2 (Homo sapiens, UniProt P19525)",95%
"FLT3 (Homo sapiens, UniProt P36888, D835Y)",95%
"MATK (Homo sapiens, UniProt P42679)",84%
"EGFR (Homo sapiens, UniProt P00533, A750P/del747-749)",80%
"RET (Homo sapiens, UniProt P07949)",95%
"MAPKAPK2 (Homo sapiens, UniProt P49137)",75%
"STK32A (Homo sapiens, UniProt Q8WU08)",90%
"ERBB3 (Homo sapiens, UniProt P21860)",100%
"SNRK (Homo sapiens, UniProt Q9NRH2)",76%
"ULK2 (Homo sapiens, UniProt Q8IYT8)",93%
"BMPR1B (Homo sapiens, UniProt O00238)",67%
"MARK2 (Homo sapiens, UniProt Q7KZI7)",100%
"OXSR1 (Homo sapiens, UniProt O95747)",79%
"ALK (Homo sapiens, UniProt Q9UM73, L1196M)",100%
"Ribosomal protein S6 kinase alpha-6, N-terminal kinase domain (RPS6KA6, Homo sapiens, UniProt Q9UK32)",84%

# Series 5
# Organism: Sarcocystis neurona
# Observed: parasite growth
# Concentration: concentration not given
# Notes: secondary screen
Structure (SMILES),inhibition [%]
COc1ccc(CCN)cc1OC,-10.9
CCN(CC)CCOC(=O)C(O)(c1ccccc1)c1ccccc1.Cl,-10.1
COC(=O)N1CCN(C(=O)Cc2ccc(Cl)c(Cl)c2)C(CN2CCCC2)C1.O=C(O)/C=C/C(=O)O (centres unmarked),-23.6

# Series 6
# Cell line: mouse MPNST tumor cells
# Technique: high-content immunofluorescence imaging
# Measured: nuclear SOX9
# Concentration: 10 µM
# Time: 12 h
# Notes: mean of 2 replicates
# Relative to: DMSO control
# Reading: higher = more nuclear SOX9
Structure (SMILES),nuclear SOX9 intensity
CCCN1CCC[C@@H]2Cc3n[nH]cc3C[C@H]21,104 % of DMSO
CN1CCc2cc(Cl)c(O)cc2[C@H]2c3ccccc3CC[C@@H]21,152 % of DMSO
CC(=O)[C@H]1CC[C@H]2[C@@H]3CC[C@@H]4C[C@H](O)CC[C@]4(C)[C@H]3CC[C@]12C,103 % of DMSO

# Further values, each from its own experiment
# Target: Calcium/calmodulin-dependent protein kinase type II subunit alpha (CAMK2A, Homo sapiens, UniProt Q9UQM7)
# Chain of UniProt Q9UQM7 (whole entry, looked up): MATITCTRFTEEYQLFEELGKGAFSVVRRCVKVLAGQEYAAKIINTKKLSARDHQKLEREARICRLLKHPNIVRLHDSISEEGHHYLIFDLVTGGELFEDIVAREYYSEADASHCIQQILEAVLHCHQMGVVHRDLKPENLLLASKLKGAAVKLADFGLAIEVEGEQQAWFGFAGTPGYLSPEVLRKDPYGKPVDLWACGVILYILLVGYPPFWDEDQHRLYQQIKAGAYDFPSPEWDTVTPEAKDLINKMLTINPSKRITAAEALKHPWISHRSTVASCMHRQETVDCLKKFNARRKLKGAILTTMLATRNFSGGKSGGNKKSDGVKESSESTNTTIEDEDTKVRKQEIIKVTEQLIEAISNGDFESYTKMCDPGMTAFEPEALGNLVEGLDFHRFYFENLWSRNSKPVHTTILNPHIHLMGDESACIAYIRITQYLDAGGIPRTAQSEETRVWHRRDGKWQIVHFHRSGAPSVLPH
# Observed: enzyme activity
# Action: inhibitor
# Concentration: 10 µM
Structure (SMILES),inhibition
C[C@]12CC[C@H](O)C[C@H]1CC[C@@H]1[C@@H]2[C@H](O)C[C@]2(C)[C@@H](c3ccc(=O)oc3)CC[C@]12O,3%
C[C@H](N)[C@H](O)c1ccc(O)c(O)c1,-7%
CCCCOC(=O)c1ccccc1C(=O)O,7%

# Repeated from above (series 6):
Structure (SMILES),nuclear SOX9 intensity
CN1CCc2cc(Cl)c(O)cc2[C@H]2c3ccccc3CC[C@@H]21,152 % of DMSO
CC(=O)[C@H]1CC[C@H]2[C@@H]3CC[C@@H]4C[C@H](O)CC[C@]4(C)[C@H]3CC[C@]12C,103 % of DMSO
CCCN1CCC[C@@H]2Cc3n[nH]cc3C[C@H]21,104 % of DMSO
